Published values collected from several papers.
Numbered parts are unrelated; each lists some results of a single study. Changes are numbered by the printed parent chain.

Series 1 — method: protein binding microarray; molecule type: double-stranded DNA, one strand shown; matrix: in vitro; concentration: not given; reference: not given; direction: higher = stronger binding; endpoint: E-score
Target: Histone acetyltransferase KAT6A, winged helix 1, GST fusion (KAT6A, Homo sapiens, UniProt Q92794, residues 1-85)
Notes: 8-mer, flanks averaged, mean of 2 arrays, mostly near background
Residues (chain): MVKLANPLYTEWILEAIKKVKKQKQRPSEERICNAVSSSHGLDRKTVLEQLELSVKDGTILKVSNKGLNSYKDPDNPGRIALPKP
Strand = ACTTTAGA; result = -0.202
Strand = GACCATAA; result = -0.0499
Strand = CGATCATA; result = -0.00413
Strand = CGACGACA; result = -0.134
Strand = AAATCCTC; result = -0.181
Strand = CGAAGAAA; result = -0.169
Strand = GGATGCAC; result = -0.0391
Strand = AAAACATG; result = -0.0601
Strand = ATTGTTGA; result = -0.232
Strand = ATAGGACG; result = 0.0403
Strand = ATAAACGA; result = -0.0209
Strand = CCGTGAGA; result = 0.213
Strand = TACACGGA; result = 0.102
Strand = TGCTGGAA; result = -0.159
Strand = CGTCGGCC; result = 0.398
Strand = CCCTAGCC; result = -0.0576
Strand = GGGGCATA; result = -0.13
Strand = CCTATCAA; result = -0.131
Strand = AATGTGTG; result = -0.109
Strand = AGGTTTGC; result = -0.0863
Strand = GCGAGGAA; result = 0.0573
Strand = TCAAGAGA; result = -0.19
Strand = CTAGCCGC; result = 0.356

Series 2 — method: protein-binding microarray; molecule type: double-stranded DNA, one strand shown; matrix: in vitro; concentration: 250 nM; notes: 60-bp whole probe; added: salmon DNA 0.4 mg/ml; reference: random background probes; direction: higher = stronger binding; endpoint: log fluorescence; shared flanks, not repeated: GCCTAGCAC … GTCTTGATTCGCTTGACGCTGCTG
Target: Interferon regulatory factor 5, full length, phosphomimetic (IRF5, Homo sapiens, UniProt Q13568-2, residues 1-514, K96S/S451D/S453D/S456D/S462D)
Strand = GACGGACTGCTTTTGCTGACGTGCTAG; result = -0.105 z-score
Strand = GACGGTTTCCTACTGCTGTCGTGCTAG; result = 0.457 z-score
Strand = AACGGACTGGGTATCGGGACGTGCTAG; result = 0.245 z-score
Strand = TCAGGTATCCTTTTCCTTTAGTGCTAG; result = 0.449 z-score
Strand = TTAGAACTGGGGACTGGATGAGTGCTA; result = -0.327 z-score
Strand = TTAGGGATCGACACTGGGTTAGTGCTA; result = -0.0941 z-score
Strand = TTAGGTTTCGGTACCGGTTAGTGCTAG; result = 9.96 z-score
Strand = GGATTTCAGTTTCTCTTTCCGTGCTAG; result = 6.49 z-score
Strand = TTAGGACTGGGGGTTCGGTTAGTGCTA; result = 0.497 z-score
Strand = TTAGGTCTCCCTATCCTTTAGTGCTAG; result = -0.0308 z-score
Strand = TTAGGCCTGGGGACTGGGTTAGTGCTA; result = -0.51 z-score
Strand = TTAGATACCAGTCTCGATTAGTGCTAG; result = 0.919 z-score
Strand = TACGGTATCGACTATCGGGACGTGCTA; result = 3.94 z-score
Strand = TTAGATATGGGGTATCGATTAGTGCTA; result = 2.36 z-score
Strand = TTAGGTTTCTGTATCGGTTAGTGCTAG; result = 8.17 z-score
Strand = TCACATGTTGCTCTCCGACTGTGCTAG; result = -0.215 z-score
Strand = TCATGGGTCTTGTCTGGAACTGTGCTA; result = -0.286 z-score
Strand = TCATCTCTGGCCCTCCTACTGTGCTAG; result = -0.284 z-score
Strand = TTCGATATCAGTATCGATTAGTGCTAG; result = 7.93 z-score
Strand = TATGAAATGGAAGTTTAGGGGTGCTAG; result = 0.213 z-score
Strand = GACGGAATGGACTTTCGGGACGTGCTA; result = 4.78 z-score
Strand = TTAGGTTTCGTGTTTCGGTTAGTGCTA; result = 8.94 z-score
Strand = TTAGGTTTCGTTATCCTTTAGTGCTAG; result = 7.43 z-score

Series 3 — method: universal PBM; molecule type: double-stranded DNA, one strand shown; matrix: in vitro; concentration: not given; direction: higher = stronger binding; endpoint: E-score
Target: Sal-like protein 4, full length isoform B (SALL4, Homo sapiens, UniProt Q9UJQ4-2, residues 1-616)
Notes: 8-mer, flanks averaged, mean of replicates
Construct (chain): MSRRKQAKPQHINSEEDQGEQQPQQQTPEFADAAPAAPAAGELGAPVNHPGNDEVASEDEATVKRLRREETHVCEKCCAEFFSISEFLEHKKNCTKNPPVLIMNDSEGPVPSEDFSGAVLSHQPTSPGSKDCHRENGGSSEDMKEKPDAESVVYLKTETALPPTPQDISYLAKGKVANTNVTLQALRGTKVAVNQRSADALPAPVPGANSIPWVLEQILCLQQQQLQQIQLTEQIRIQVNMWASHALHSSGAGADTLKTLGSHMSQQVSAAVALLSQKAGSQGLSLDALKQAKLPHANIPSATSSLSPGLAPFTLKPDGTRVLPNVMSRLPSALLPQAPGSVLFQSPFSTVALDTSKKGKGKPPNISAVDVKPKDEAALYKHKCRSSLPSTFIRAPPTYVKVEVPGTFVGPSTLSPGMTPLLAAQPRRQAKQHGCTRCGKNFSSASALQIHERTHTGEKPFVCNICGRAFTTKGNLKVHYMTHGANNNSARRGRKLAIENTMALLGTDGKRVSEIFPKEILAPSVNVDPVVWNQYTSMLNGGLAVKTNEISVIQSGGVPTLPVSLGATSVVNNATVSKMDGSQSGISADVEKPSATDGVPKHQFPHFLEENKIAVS
Strand = ACGTGGTG; result = -0.202
Strand = GAGGGGTA; result = -0.236
Strand = CTATGAAG; result = 0.183
Strand = ATACTTCA; result = 0.247
Strand = AAACTTGA; result = 0.124
Strand = CATCTTAC; result = 0.0372
Strand = AAAGCGGT; result = -0.11
Strand = TGCTCCCA; result = 0.02
Strand = AAAGCACG; result = -0.0653
Strand = ATAAGAAC; result = 0.24
Strand = ATCCATCG; result = -0.0128
Strand = GAGGGAGC; result = -0.292
Strand = CGGCATTC; result = -0.135
Strand = GAAGTCGA; result = -0.0305
Strand = TCGAGCAA; result = 0.0261
Strand = TGCATGCA; result = 0.211

Series 4 — target: NFE2L1, bZIP domain (human); method: DHFR protein complementation; matrix: yeast; reference: wild-type JUN-FOS pair; direction: higher = stronger binding; endpoint: binding fitness
Notes: single substitutions, most at no-binding floor
Starting sequence: JUN, bZIP domain (human); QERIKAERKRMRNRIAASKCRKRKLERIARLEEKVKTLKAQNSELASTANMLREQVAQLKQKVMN; partner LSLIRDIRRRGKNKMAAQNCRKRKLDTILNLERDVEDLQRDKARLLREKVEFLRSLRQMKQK
Change = S43H; result = -1.43 natural log
Change = L31F; result = -1.3 natural log
Change = S43D; result = -1.58 natural log
Change = M51A; result = -1.42 natural log
Change = T48H; result = -1.47 natural log
Change = E33D; result = -1.23 natural log
Change = V35P; result = -1.5 natural log
Change = E32H; result = -1.48 natural log
Change = V35E; result = -1.53 natural log
Change = E33H; result = -1.58 natural log
Change = A29V; result = -1.44 natural log
Change = L38D; result = -1.53 natural log
Change = K39S; result = -1.41 natural log
Change = S43L; result = -1.37 natural log
Change = S43W; result = -1.48 natural log
Change = E54W; result = -1.35 natural log
Change = S43N; result = -1.53 natural log
Change = E44V; result = -1.52 natural log
Change = T48Q; result = -1.52 natural log
Change = L52P; result = -1.54 natural log

Series 5 — method: DHFR PCA, deep sequencing; matrix: yeast; added: (+)-ABA 1.4 µM; reference: wild-type fitted maximum; direction: higher = stronger binding; endpoint: relative binding score
Target: ABI1, truncated, D143A, DHFR fusion (Arabidopsis thaliana)
Notes: methotrexate growth selection, single substitutions
Starting sequence: PYL1, truncated, DHFR fusion (Arabidopsis thaliana); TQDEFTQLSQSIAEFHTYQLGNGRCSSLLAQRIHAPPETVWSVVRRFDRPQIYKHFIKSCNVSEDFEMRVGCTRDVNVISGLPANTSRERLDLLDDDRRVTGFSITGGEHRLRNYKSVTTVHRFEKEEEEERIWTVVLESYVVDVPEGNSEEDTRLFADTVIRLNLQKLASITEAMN; partner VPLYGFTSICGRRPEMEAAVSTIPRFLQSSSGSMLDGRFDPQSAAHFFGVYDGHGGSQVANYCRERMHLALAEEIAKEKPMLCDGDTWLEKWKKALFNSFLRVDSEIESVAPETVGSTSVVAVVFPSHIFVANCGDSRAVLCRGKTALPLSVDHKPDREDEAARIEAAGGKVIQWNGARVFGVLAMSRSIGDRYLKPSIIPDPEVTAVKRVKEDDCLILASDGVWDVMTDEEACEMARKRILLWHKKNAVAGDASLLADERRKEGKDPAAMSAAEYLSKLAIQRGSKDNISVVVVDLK
Change = S42F; result = -4.47%
Change = S80N; result = 24.8%
Change = V76C; result = 27.5%
Change = N22P; result = 74.6%
Change = V62W; result = -0.659%
Change = R74E; result = -1.68%
Change = E89Q; result = 0.186%
Change = V76W; result = -2.73%
Change = R90P; result = 0.196%
Change = V76G; result = -1.59%
Change = D153M; result = -1.37%
Change = K126A; result = 82.8%

Series 6 — target: CCNA1, cyclin fold, Cln2 fusion (human); method: yeast growth competition, sequencing; matrix: yeast; notes: weak parent motif; reference: not given; direction: higher = stronger binding; endpoint: normalised enrichment score
Starting sequence: BRCA2 docking peptide (human); PSIKRNLLNEFDR
Change = PRIKRNLLNEFDR [S2R]; result = 0.32
Change = PSIWRNLLNEFDR [K4W]; result = -0.292
Change = PSIKRNLLNERDR [F11R]; result = 0.165
Change = PSIKMNLLNEFDR [R5M]; result = 0.457
Change = PSIKRNLLNEFLR [D12L]; result = 0.0892
Change = PSIKRNSLNEFDR [L7S]; result = 0.165
Change = PSIKRNLLYEFDR [N9Y]; result = 0.696
Change = ISIKRNLLNEFDR [P1I]; result = 0.444
Change = ESIKRNLLNEFDR [P1E]; result = 0.713
Change = PSIYRNLLNEFDR [K4Y]; result = 0.254
Change = PSIKRNLLNEFDP [R13P]; result = 0.211
Change = PSIKRILLNEFDR [N6I]; result = -0.0162
Change = PSIKRNLLNDFDR [E10D]; result = 0.669
Change = PSIKRNLSNEFDR [L8S]; result = 0.512
Change = PSIKSNLLNEFDR [R5S]; result = 0.538
Change = PSIKENLLNEFDR [R5E]; result = 0.399
Change = PSIKRNLLNESDR [F11S]; result = -0.111
Change = PSIKRDLLNEFDR [N6D]; result = 0.281

Mixed results
Substance = PhoQ, residues 284 288 289 292 302 303 TLMATV; target = PhoP, residues 12 14 15 18 19 TTLRV (Escherichia coli, UniProt P23836); test = Sort-seq, item: YFP reporter; system = E. coli; setting = PhoQ-PhoP variant library, added: 10 µM Mg2+; how to read = reference: high Mg2+ state, higher = stronger signaling; endpoint = fold induction; result = 17.6

Excerpt of the above (series 1):
Strand = CGACGACA; result = -0.134
Strand = CGTCGGCC; result = 0.398
Strand = GACCATAA; result = -0.0499
Strand = ATAGGACG; result = 0.0403
Strand = AGGTTTGC; result = -0.0863
Strand = GCGAGGAA; result = 0.0573
